Measured values pooled from the literature.
Lines come from different studies, so protocols differ. pEC50, pIC50: −log10 of the molar value.
Chain of UniProt P41143 (whole entry, looked up): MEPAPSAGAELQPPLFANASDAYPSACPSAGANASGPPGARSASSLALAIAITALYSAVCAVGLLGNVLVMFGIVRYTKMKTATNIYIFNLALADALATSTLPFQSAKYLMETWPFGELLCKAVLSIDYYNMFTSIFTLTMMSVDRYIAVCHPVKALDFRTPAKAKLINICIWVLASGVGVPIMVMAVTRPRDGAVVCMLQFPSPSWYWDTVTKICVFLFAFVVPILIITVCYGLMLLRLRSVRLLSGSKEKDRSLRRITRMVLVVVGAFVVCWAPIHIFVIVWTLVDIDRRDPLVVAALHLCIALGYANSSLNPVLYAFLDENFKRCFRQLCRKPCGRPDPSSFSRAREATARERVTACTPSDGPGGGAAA
Chain of UniProt P37136 (whole entry, looked up): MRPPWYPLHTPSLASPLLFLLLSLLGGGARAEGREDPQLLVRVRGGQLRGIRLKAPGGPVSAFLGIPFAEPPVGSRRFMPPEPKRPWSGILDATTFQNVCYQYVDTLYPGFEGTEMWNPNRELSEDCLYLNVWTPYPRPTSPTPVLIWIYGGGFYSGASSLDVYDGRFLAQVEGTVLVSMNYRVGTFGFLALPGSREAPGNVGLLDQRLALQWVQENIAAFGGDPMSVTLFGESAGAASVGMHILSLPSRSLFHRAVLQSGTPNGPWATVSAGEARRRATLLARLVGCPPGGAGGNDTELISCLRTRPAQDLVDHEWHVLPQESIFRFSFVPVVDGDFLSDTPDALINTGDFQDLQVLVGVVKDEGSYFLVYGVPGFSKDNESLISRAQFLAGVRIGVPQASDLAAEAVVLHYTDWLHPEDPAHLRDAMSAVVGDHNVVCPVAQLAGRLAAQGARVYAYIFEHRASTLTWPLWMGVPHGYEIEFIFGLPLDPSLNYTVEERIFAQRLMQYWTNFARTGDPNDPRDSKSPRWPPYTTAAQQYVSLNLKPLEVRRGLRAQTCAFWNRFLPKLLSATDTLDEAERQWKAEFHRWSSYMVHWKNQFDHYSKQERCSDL

Molecule = semaglutide; assay = refers to: action taken missing; system = human, safety analysis set; conditions = concentration not given, 32 weeks, run-in; quantity = participants with adverse events; value = 3.1%
Molecule = phoxim-oxon; tested on = Ache (Rattus norvegicus, UniProt P37136); assay = enzyme activity, inhibitor, Ellman; system = rat, postnatal day 70, heart homogenate; conditions = 15 min, 37 °C; quantity = pIC50; value = 8.10
Molecule = chicoric acid; tested on = IPEC-J2 monolayer; conditions = with: vinblastine 30 µM; how to read = reference: without inhibitor; quantity = Papp apical to basolateral; value = decreased
Molecule = deucravacitinib; system = human; conditions = oral, 12 mg once daily, day 12, geometric mean; quantity = Cmax; value = 117 ng/mL
Molecule = vorinostat glucuronide; system = patients, plasma; conditions = oral, 100 mg vorinostat three times daily, 3 days, with: idarubicin; quantity = Cmax; value = 1210 nM
Molecule = SNC80; tested on = Delta-type opioid receptor, with β-arrestin2 (OPRD1, Homo sapiens, UniProt P41143); assay = β-arrestin2 recruitment, agonist; quantity = pEC50; value = 7.63
Molecule = maraviroc; system = black CYP3A5 intermediate metabolizers, plasma; conditions = 300 mg twice daily; quantity = Cmax; value = 754 ng/mL

For quick reference, copied from above:
Molecule = SNC80; tested on = Delta-type opioid receptor, with β-arrestin2 (OPRD1, Homo sapiens, UniProt P41143); assay = β-arrestin2 recruitment, agonist; quantity = pEC50; value = 7.63
